Published values collected from several papers.
A part holds a random share of what one study measured. Positions count from the first letter of the parent shown.

Set 1
Target: Histone acetyltransferase KAT6A, winged helix 1, GST fusion (KAT6A, Homo sapiens, UniProt Q92794, residues 1-85)
Method: protein binding microarray
Form: double-stranded DNA, one strand shown
Medium: in vitro
Tested at: not given
Notes: 8-mer, flanks averaged, mean of 2 arrays, mostly near background
Relative to: not given
Direction: higher = stronger binding
Construct (chain): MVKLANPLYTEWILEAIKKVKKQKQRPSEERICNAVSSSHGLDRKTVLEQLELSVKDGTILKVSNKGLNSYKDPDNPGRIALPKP
Oligonucleotide | E-score
AACTATTA | -0.0529
ACACCCGA | 0.115
ATGCACGG | 0.182
ATAATACG | 0.0448
GCTTACGA | -0.0604
CCACCACA | -0.271
AATCGCGT | 0.116
CGGATATC | 0.081

Set 2
Target: ABI1, truncated, D143A, DHFR fusion (Arabidopsis thaliana)
Method: DHFR PCA, deep sequencing
Medium: yeast
Notes: methotrexate growth selection, single substitutions
Added: (+)-ABA 0.0091 µM
Relative to: wild-type fitted maximum
Direction: higher = stronger binding
Starting sequence: PYL1, truncated, DHFR fusion (Arabidopsis thaliana); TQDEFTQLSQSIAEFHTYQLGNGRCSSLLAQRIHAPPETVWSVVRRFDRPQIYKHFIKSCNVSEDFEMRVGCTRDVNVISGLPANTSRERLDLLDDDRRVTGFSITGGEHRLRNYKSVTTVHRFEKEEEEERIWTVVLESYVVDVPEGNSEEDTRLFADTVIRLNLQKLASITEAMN; partner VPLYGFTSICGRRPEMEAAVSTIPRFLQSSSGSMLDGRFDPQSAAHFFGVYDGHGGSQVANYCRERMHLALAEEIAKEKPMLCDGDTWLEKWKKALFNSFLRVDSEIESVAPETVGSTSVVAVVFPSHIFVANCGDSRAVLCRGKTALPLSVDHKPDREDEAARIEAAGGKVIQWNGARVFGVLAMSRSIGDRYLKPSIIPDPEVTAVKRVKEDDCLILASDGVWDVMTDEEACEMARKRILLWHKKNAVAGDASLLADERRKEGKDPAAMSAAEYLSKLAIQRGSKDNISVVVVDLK
Variant | relative binding score [%]
Q167S | 12.9
D144F | -0.961
R155W | -4.05

Set 3
Target: CCNA1, cyclin fold, Cln2 fusion (human)
Method: yeast growth competition, sequencing
Medium: yeast
Notes: weak parent motif
Relative to: not given
Direction: higher = stronger binding
Starting sequence: SCAPER docking peptide (human); SNARRSLNFGGST; partner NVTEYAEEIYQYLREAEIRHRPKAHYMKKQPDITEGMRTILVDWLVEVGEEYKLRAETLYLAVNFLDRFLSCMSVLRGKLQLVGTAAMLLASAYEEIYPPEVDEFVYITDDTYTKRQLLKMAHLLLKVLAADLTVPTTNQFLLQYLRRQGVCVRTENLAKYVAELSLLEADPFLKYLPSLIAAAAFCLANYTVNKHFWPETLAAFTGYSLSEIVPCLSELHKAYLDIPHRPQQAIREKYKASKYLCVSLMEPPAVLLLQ
Variant | normalised enrichment score
INARRSLNFGGST [S1I] | 0.479
SNARRSLYFGGST [N8Y] | 0.406
SNARRSLNFGNST [G11N] | 0.489
SNADRSLNFGGST [R4D] | 0.33
SNGRRSLNFGGST [A3G] | 0.192

Further values, each from its own experiment
Molecule | target | test | test system | setting | how to read | endpoint | result
PhoQ, residues 284 288 289 292 302 303 SVTLVV | PhoP, residues 12 14 15 18 19 NQGLL (Escherichia coli, UniProt P23836) | Sort-seq, item: YFP reporter | E. coli | PhoQ-PhoP variant library, added: 10 µM Mg2+ | relative to: high Mg2+ state, higher = stronger signaling | fold induction | 2.11

For quick reference, copied from above (set 1):
Oligonucleotide | E-score
AATCGCGT | 0.116
ATAATACG | 0.0448
